Assay results from different studies.
Protocols differ between the studies behind these lines. ± gives the spread as reported.
rep main protease: Replicase polyprotein 1ab, main protease (rep, Severe acute respiratory syndrome coronavirus 2, UniProt P0DTD1)

CCN1CCN(Cc2ccc(Nc3ncc(F)c(-c4cc(F)c5nc(C)n(C(C)C)c5c4)n3)nc2)CC1  EC50 (Severe acute respiratory syndrome coronavirus 2; viral replication; Vero C1008, USA_WA1/2020; 72 h): 3.16 µM
Cn1cnc(Cn2c(=O)[nH]/c(=N\c3cc4cn(C)nc4cc3Cl)n(Cc3cc(F)c(F)cc3F)c2=O)n1  EC50 (Severe acute respiratory syndrome coronavirus 2; viral replication, inhibitor; Vero C1008; 24 h, replicon): 0.06 µM
Cc1cnc(C(=O)N[C@H]2CCCCC/C=C\[C@@H]3C[C@@]3(C(=O)NS(=O)(=O)C3CC3)NC(=O)[C@@H]3C[C@@H](Oc4nc5ccccc5c5ccccc45)CN3C2=O)cn1  EC50 (Severe acute respiratory syndrome coronavirus 2; viral replication, inhibitor; Vero C1008): 22 µM
Cn1cnc(Cn2c(=O)[nH]/c(=N\c3cc4cn(C)nc4cc3Cl)n(Cc3cc(F)c(F)cc3F)c2=O)n1  anaemia TEAE, Mild severity (human, normal renal function; oral, 375 mg): 0%
O=c1c2ccccc2[se]n1-c1ccccc1  EC50 (Severe acute respiratory syndrome coronavirus 2; antiviral activity; Huh-7; 96 h): > 100 µM
C=CC(=O)Nc1cc(Nc2nccc(-c3cn(C)c4ccccc34)n2)c(OC)cc1N(C)CCN(C)C  EC50 (Severe acute respiratory syndrome coronavirus 2; viral replication; Vero C1008, USA_WA1/2020; 72 h): 3.98 µM
Cc1cccc(C)c1OCC(=O)N[C@@H](Cc1ccccc1)[C@@H](O)C[C@H](Cc1ccccc1)NC(=O)[C@H](C(C)C)N1CCCNC1=O  EC50 (Severe acute respiratory syndrome coronavirus 2; cytopathic effect, inhibitor): 7.77 µM
COC(=O)N[C@H](C(=O)N[C@@H](Cc1ccccc1)[C@@H](O)CN(Cc1ccc(-c2ccccn2)cc1)NC(=O)[C@@H](NC(=O)OC)C(C)(C)C)C(C)(C)C.O=S(=O)(O)O  inhibition (rep main protease; reporter gene (mKate2), inhibitor; 20 µM): 0.17%
COc1c(OCCCN2CCOCC2)ccc2c1N=C(NC(=O)c1cnc(N)nc1)N1CCN=C21  EC50 (Severe acute respiratory syndrome coronavirus 2; viral replication; Vero C1008, USA_WA1/2020; 72 h): > 20 µM
CC(C)(C)[C@@H]1NC(=O)O[C@@H]2CCC[C@H]2OC/C=C/C(F)(F)c2nc3ccccc3nc2O[C@@H]2C[C@@H](C(=O)N[C@]3(C(=O)NS(=O)(=O)C4(C)CC4)C[C@H]3C(F)F)N(C2)C1=O  EC50 (Severe acute respiratory syndrome coronavirus 2; viral replication, inhibitor; Vero C1008): > 178 µM
Oc1c(Cl)cc(Cl)c(Cl)c1Cc1c(O)c(Cl)cc(Cl)c1Cl  EC50 (Severe acute respiratory syndrome coronavirus 2; antiviral activity; Huh-7; 96 h): > 100 µM
COc1ccc2c(O[C@@H]3C[C@H]4C(=O)N[C@]5(C(=O)NS(=O)(=O)C6CC6)C[C@H]5/C=C\CCCCC[C@H](CC(=O)N5CCCC(F)(F)C5)C(=O)N4C3)cc(-c3nc(C(C)C)cs3)nc2c1C  EC50 (Severe acute respiratory syndrome coronavirus 2; viral replication, inhibitor; Vero C1008): > 20 µM
CCCCCCCCCCCCCCCCOCCCOP(=O)(O)OC[C@H]1O[C@@](C#N)(c2ccc3c(N)ncnn23)[C@H](O)[C@@H]1O  EC50 (Severe acute respiratory syndrome coronavirus 2; viral replication, inhibitor, qPCR; human; 48 h): 0.35 µM
CC[C@H]1CN2CCc3cc(OC)c(OC)cc3[C@@H]2C[C@@H]1C[C@H]1NCCc2cc(OC)c(OC)cc21  EC50 (Severe acute respiratory syndrome coronavirus 2; viral replication, inhibitor, qPCR; Vero C1008; 24 h): 0.00771 µM
CCC(CC)COC(=O)[C@H](C)N[P@](=O)(OC[C@H]1O[C@@](C#N)(c2ccc3c(N)ncnn23)[C@H](O)[C@@H]1O)Oc1ccccc1  EC50 (Severe acute respiratory syndrome coronavirus 2; cytopathic effect, inhibitor): 2.6 µM
COc1ccc2c(O[C@@H]3C[C@H]4C(=O)N[C@]5(C(=O)NS(=O)(=O)C6CC6)C[C@H]5/C=C\CCCCN(C)C(=O)[C@@H]4C3)cc(-c3nc(C(C)C)cs3)nc2c1C  EC50 (Severe acute respiratory syndrome coronavirus 2; viral replication, inhibitor; Vero C1008): 15 µM
CC[C@H](C)[C@H](NC(=O)[C@H](CC(C)C)NC(=O)[C@H](Cc1c[nH]c2ccccc12)NC(=O)[C@H](CCC(N)=O)NC(=O)[C@@H](NC(=O)[C@H](Cc1ccccc1)NC(=O)[C@H](C)NC(=O)[C@H](CCCCNC(=O)COCCOCCNC(=O)COCCOCCNC(=O)CC[C@H](NC(=O)CCCCCCCCCCCCCCCCCCC(=O)O)C(=O)O)NC(=O)[C@H](CCC(N)=O)NC(=O)[C@H](C)NC(=O)[C@@H](NC(=O)[C@H](CCCCN)NC(=O)[C@H](CC(=O)O)NC(=O)[C@H](CC(C)C)NC(=O)C(C)(C)NC(=O)[C@@H](NC(=O)[C@H](CO)NC(=O)[C@H](Cc1ccc(O)cc1)NC(=O)[C@H](CC(=O)O)NC(=O)[C@H](CO)NC(=O)[C@@H](NC(=O)[C@H](Cc1ccccc1)NC(=O)[C@@H](NC(=O)CNC(=O)[C@H](CCC(=O)O)NC(=O)C(C)(C)NC(=O)[C@@H](N)Cc1ccc(O)cc1)[C@@H](C)O)[C@@H](C)O)[C@@H](C)CC)[C@@H](C)CC)C(C)C)C(=O)N[C@@H](C)C(=O)NCC(=O)NCC(=O)N1CCC[C@H]1C(=O)N[C@@H](CO)C(=O)N[C@@H](CO)C(=O)NCC(=O)N[C@@H](C)C(=O)N1CCC[C@H]1C(=O)N1CCC[C@H]1C(=O)N1CCC[C@H]1C(=O)N[C@@H](CO)C(N)=O  serum AST (healthy subjects, single ascending dose; 8.0 mg, baseline): 23.3 ± 6.9 U/L
Clc1cccc(/C=C/c2nn3c(-c4ccco4)nnc3s2)c1  EC50 (Severe acute respiratory syndrome coronavirus 2; antiviral activity; Huh-7; 96 h): > 100 µM
CC(C)CN(C[C@@H](O)[C@H](Cc1ccccc1)NC(=O)O[C@H]1CCOC1)S(=O)(=O)c1ccc(N)cc1  inhibition (rep main protease; reporter gene (Gaussia luciferase), inhibitor; 20 µM): -1.39%
O=C1c2c(O)ccc(O)c2C(=O)c2c(NCCNCCO)ccc(NCCNCCO)c21  EC50 (Severe acute respiratory syndrome coronavirus 2; antiviral activity; Huh-7; 96 h): > 100 µM
CCC[C@H](NC(=O)[C@@H]1[C@H]2CCC[C@H]2CN1C(=O)[C@@H](NC(=O)[C@@H](NC(=O)c1cnccn1)C1CCCCC1)C(C)(C)C)C(=O)C(=O)NC1CC1  EC50 (Severe acute respiratory syndrome coronavirus 2; viral replication, inhibitor; Vero C1008): ~40 µM
CC[C@H]1CN2CCc3cc(OC)c(OC)cc3[C@@H]2C[C@@H]1C[C@H]1NCCc2cc(O)c(OC)cc21  EC50 (Severe acute respiratory syndrome coronavirus 2; viral replication, inhibitor, qPCR; Vero C1008; 24 h): 0.0123 µM
CCCCOc1cc(C(=O)NCCN(CC)CC)c2ccccc2n1  EC50 (Severe acute respiratory syndrome coronavirus 2; cytopathic effect, inhibitor): 63.2 µM
Nc1ncnc2c([C@@H]3N[C@H](CO)[C@@H](O)[C@H]3O)c[nH]c12  inhibition (Chikungunya virus; viral replication; HeLa, AF 15561; 0.4 µM): 13.7%

Excerpt of the above:
Nc1ncnc2c([C@@H]3N[C@H](CO)[C@@H](O)[C@H]3O)c[nH]c12  inhibition (Chikungunya virus; viral replication; HeLa, AF 15561; 0.4 µM): 13.7%
